Experimental data collected from several papers.
A part holds a random share of what one study measured.

Set 1 — method: universal PBM; form: double-stranded DNA, one strand shown; medium: in vitro; concentration: 600 nM; reading: higher = stronger binding
Target: Sal-like protein 4, full length isoform A (SALL4, Homo sapiens, UniProt Q9UJQ4, residues 1-1053)
Chain of UniProt Q9UJQ4 (whole entry, looked up): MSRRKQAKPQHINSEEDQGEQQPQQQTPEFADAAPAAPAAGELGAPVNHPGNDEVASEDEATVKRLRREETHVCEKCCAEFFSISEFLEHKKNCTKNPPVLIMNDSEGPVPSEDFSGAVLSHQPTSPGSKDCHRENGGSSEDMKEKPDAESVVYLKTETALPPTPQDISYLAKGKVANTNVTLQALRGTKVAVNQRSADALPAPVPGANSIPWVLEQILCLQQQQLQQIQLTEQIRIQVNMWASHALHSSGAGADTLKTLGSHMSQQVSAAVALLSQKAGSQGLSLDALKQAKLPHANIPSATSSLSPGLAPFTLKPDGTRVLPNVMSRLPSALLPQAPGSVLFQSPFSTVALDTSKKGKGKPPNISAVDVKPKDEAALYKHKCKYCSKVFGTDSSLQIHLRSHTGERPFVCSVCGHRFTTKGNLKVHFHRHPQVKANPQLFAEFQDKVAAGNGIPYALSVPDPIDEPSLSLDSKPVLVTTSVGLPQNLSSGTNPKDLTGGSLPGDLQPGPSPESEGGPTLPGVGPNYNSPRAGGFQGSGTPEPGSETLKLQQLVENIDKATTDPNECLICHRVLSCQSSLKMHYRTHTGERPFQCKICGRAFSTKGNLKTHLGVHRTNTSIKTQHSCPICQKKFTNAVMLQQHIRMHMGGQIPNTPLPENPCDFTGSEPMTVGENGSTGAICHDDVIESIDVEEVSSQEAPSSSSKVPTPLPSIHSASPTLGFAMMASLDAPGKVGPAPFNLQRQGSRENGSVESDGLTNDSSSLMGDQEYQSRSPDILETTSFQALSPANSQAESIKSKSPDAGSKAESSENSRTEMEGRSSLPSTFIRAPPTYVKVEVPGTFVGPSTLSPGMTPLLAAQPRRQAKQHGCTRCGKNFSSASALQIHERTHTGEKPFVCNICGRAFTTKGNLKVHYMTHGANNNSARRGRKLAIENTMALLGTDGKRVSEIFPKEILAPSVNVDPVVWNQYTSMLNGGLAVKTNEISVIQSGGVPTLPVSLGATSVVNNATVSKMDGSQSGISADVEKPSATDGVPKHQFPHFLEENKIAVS
Notes: 8-mer, flanks averaged, mean of replicates
Strand	E-score
ATAGCCGC	-0.145
TACGAGGA	-0.0265
GTTGTGGA	0.0385
ATGATAAA	0.365
CCCTCGTC	-0.241
CGAATACC	-0.182
GAGAGACC	-0.263
GGGCTGAA	-0.239
AAAACTGA	0.083

Set 2 — method: protein-binding microarray; form: double-stranded DNA, one strand shown; medium: in vitro; concentration: 2540 nM top; notes: 60-bp whole probe; added: salmon DNA 0.4 mg/ml; relative to: random background probes; reading: higher = stronger binding; constant ends, left off below: GCCTAGCAC … GTCTTGATTCGCTTGACGCTGCTG
Target: Interferon regulatory factor 3, full length, phosphomimetic (IRF3, Homo sapiens, UniProt Q14653, residues 1-427, S386D/S396D/S398D/S402D/T404D/S405D)
Target sequence (chain): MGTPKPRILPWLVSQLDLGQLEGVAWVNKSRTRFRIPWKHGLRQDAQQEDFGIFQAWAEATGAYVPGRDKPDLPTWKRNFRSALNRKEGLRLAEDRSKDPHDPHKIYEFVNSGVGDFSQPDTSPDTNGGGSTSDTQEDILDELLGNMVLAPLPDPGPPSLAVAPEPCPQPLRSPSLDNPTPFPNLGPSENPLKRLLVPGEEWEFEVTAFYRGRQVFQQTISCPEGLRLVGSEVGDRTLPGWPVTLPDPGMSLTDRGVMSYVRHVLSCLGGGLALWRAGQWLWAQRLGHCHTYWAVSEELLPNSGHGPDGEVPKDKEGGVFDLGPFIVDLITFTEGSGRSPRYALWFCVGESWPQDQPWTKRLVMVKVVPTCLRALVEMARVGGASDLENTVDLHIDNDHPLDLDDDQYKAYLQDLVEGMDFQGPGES
Strand	fitted relative affinity [z-score]
AACTCTTTGCAGATAAATACGTGCTAG	0.405
CGCAGGGCAGGCTTCGGCCGGTGCTAG	-1.58
GACGGTATCGACTATCGGGATGTGCTA	0.672
TTAGGTTACGACTATCGGTTAGTGCTA	0.47
GACGGTTTCCTCTCCCTGACGTGCTAG	3.87
TTAGGACTGGGGATTCGGTTAGTGCTA	-0.406
TTAGGACTGGGTCTCGGCTAGTGCTAG	-0.965

Set 3 — method: RNA Bind-n-Seq; form: RNA; medium: in vitro; concentration: 1 µM; notes: whole 134-nt RNA, ends assumed; added: 150 mM KCl; relative to: input library; reading: higher = stronger binding
Target: Ras GTPase-activating protein-binding protein 1, C-terminal RGG region (G3BP1, Homo sapiens, UniProt Q13283)
Chain of UniProt Q13283 (whole entry, looked up): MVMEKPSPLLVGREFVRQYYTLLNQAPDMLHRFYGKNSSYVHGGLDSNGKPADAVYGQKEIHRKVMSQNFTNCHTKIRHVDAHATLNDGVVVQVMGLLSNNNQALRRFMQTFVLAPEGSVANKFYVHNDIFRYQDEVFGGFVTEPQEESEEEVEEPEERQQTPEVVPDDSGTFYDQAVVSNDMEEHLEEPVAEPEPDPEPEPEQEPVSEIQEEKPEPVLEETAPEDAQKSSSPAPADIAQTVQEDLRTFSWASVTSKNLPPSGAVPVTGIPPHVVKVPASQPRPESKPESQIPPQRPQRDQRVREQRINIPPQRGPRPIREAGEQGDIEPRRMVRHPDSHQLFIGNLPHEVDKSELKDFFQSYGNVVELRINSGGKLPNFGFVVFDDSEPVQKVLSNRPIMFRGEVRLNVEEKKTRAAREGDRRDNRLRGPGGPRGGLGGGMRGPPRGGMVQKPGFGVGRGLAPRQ
Constant ends, left off below: GGGAGUUCUACAGUCCGACGAUC … UGGAAUUCUCGGGUGUCAAGG
Strand	log2 enrichment
AAGUCCUGUGCUACACAUCGUAUGUACCGAAUCGGGUUUUGGGGUUUUGGUUUUGGAAAGUAUUAUGUUACGCCGUUCGGAUCUGCACUU	-1.24
GUCCUGUGCUACACAUCGUAUGUACCGAAUCGGGUUUGGGUUUUUGGGAAAAAAAGGGAAAGUAUUAUGUUACGCCGUUCGGAUCUGCAC	-0.216
AGUCCUGUGCUACACAUCGUAUGUACCGAAUCGGGCCCCCGGGCCCCCGGCCCCCGGGAAAGUAUUAUGUUACGCCGUUCGGAUCUGCAC	-2.32
CAAGUCCUGUGCUACACAUCGUAUGUACCGAAUCGGGGUUUUGGUUUUGGUUUUGGAAAGUAUUAUGUUACGCCGUUCGGAUCUGCACUU	-1.65
CACAGACAACACGCACCCACACAGACACAGAGGGAAGGGGUUGGGAUGGGGACAGGGUGCACAGCAGGGCGGGGUAGGACCCCAGCUCCU	-0.889
ACCAUGCAGGUGGGCAUCUUUGGGAAGUGGGGCAAGGGGGGAAUAGGGAGGGGGGUAACACUUUGGGAACAGGUGGUCCCAGGUCGUUUC	2.16
UGGGAGCUGGAUUUUGUUUAUUUUUUUAGCUCAUUUCCAGGGGUGGGAAUUUUUUUUUAAUAUGUGUCAUGAAUAAAGUUGUUUUUGAAA	3.09
UAACUUUAGAGGAGGAUCUGAUGGAUAUGGCAGUGGACGUGGAUUUGGGGCUGGCUAUAAUGGGUAUGGAGGAGGACCUGGAGGUGGCAA	-0.599
UUGACGAGGCCGGCCCGGGAGAUGAGACCACCGGCCAGGAAGUCAUUGUCAUUCAGGACACGGGCUUUUCUGUGAAGAUCCUCGCCCCUG	-2.08

Single results of other studies
Substance	target	assay	test system	conditions	how to read	quantity	result
PhoQ, residues 284 288 289 292 302 303 NSMLDC	PhoP, residues 12 14 15 18 19 NQAHL (Escherichia coli, UniProt P23836)	Sort-seq, item: YFP reporter	E. coli	PhoQ-PhoP variant library, added: 10 µM Mg2+	relative to: high Mg2+ state, higher = stronger signaling	fold induction	4.44
